Results of several laboratories.
Protocols differ between the studies behind these lines. ± marks the error that the study gave.

C[C@@H](c1nc(-c2ccc(C#N)cc2)cs1)[C@](O)(Cn1cncn1)c1cc(F)ccc1F
Cmax (human, both sexes, plasma; oral, 200 mg single dose, with: ketoconazole 200 mg BID): 2400 ng/mL

O=C(c1cc(Cc2n[nH]c(=O)c3ccccc23)ccc1F)N1CCN(C(=O)C2CC2)CC1
Cmax (human patients, plasma; oral, 400 mg twice daily, day 2, with: pegylated liposomal doxorubicin): 6600 ± 2000 ng/mL

CS(=O)(=O)Nc1ccc(C(=O)O[C@@H](Cc2c(Cl)c[n+]([O-])cc2Cl)c2ccc(OC(F)F)c(OCC3CC3)c2)cc1OCC1CC1
Cmax (human, plasma; inhaled, 1600 µg once daily, day 1, single-dose dry powder inhaler): 0.71 ng/mL

Cn1ncc(Cl)c1-c1cc(C(=O)N[C@H](CN)Cc2ccc(F)c(F)c2)oc1Cl
Cmax (human patients, plasma; oral, 150 mg once daily, day 15, repeat dose): 901 to 932 ng/mL

C=C(C)[C@@H]1CC[C@]2(NCCN3CCS(=O)(=O)CC3)CC[C@]3(C)[C@H](CC[C@@H]4[C@@]5(C)CC=C(C6=CC[C@@](CF)(C(=O)O)CC6)C(C)(C)[C@@H]5CC[C@]43C)[C@@H]12
Cmax (human, plasma; oral, 100 mg once daily for 7 days, day 7, moderate-fat meal): 830 ng/mL

CS(=O)(=O)n1cc2c(n1)CN([C@H]1CO[C@H](c3cc(F)ccc3F)[C@@H](N)C1)C2
Cmax (healthy male human, plasma; oral, 100 mg once weekly, day 1, fasted, geometric mean): 2320 nM

O=c1[nH]cc(F)c(=O)[nH]1
Cmax (human, plasma; intravenous, 2400 mg/m^2 maintenance, cycle 1 without vorinostat, once-daily cohort): 17300 ± 2970 ng/mL

CC(C)(C)OC[C@@H]1C(=O)NCCN1C(=O)C[C@H](N)Cc1cc(F)c(F)cc1F
Cmax (human, male, plasma; oral, single dose, fixed-dose combination with metformin, fasted): 6.79 ± 1.4 ng/mL

Cc1ccc(NC(=O)c2ccc(CN3CCN(C)CC3)cc2)cc1Nc1nccc(-c2cncc(-c3oncc3C)c2)n1
Cmax (older healthy human adults, plasma; oral, 100 mg single dose, fed, mean): 5320 ng/mL

CCOc1ccc(Cc2cc([C@@H]3S[C@H](CO)[C@@H](O)[C@H](O)[C@H]3O)c(OC)cc2C)cc1
Cmax (human, plasma; oral, 10 mg/day, day 1, multiple dose before breakfast): 409 ± 84.3 ng/mL

COC(=O)c1ccc2c(c1)NC(=O)/C2=C(\Nc1ccc(N(C)C(=O)CN2CCN(C)CC2)cc1)c1ccccc1
Cmax (human, hepatic impairment Child-Pugh A, plasma; oral, 100 mg single dose, fed, adjusted geometric mean): 20.5 ng/mL

CC(C)(Sc1ccncc1-c1ccc(C#N)c2ccccc12)C(=O)O
Cmax (human male, plasma; oral, 10 mg once daily, day 7 or 21, arithmetic mean): 15.6 ng/mL

Cc1cc(C)c2c(c1)[C@@H](N(Cc1cc(C(F)(F)F)cc(C(F)(F)F)c1)c1nnn(C)n1)CCCN2C[C@H]1CC[C@H](C(=O)O)CC1
Cmax (human, plasma; oral, 100 mg once daily, steady state, geometric mean): 377 ng/mL

CN1C(=O)[C@@H](NC(=O)c2nnc(Cc3ccccc3)[nH]2)COc2ccccc21
Cmax (human male, plasma; oral, 120 mg twice daily, day 1): 1720 ng/mL

Cc1cc(C)c2c(c1)[C@@H](N(Cc1cc(C(F)(F)F)cc(C(F)(F)F)c1)c1nnn(C)n1)CCCN2C[C@H]1CC[C@H](C(=O)O)CC1
Cmax (healthy humans, plasma; oral, 130 mg once daily, day 22, geometric mean, with: gemfibrozil 600 mg twice daily): 1290 ng/mL

C=CC(=O)Nc1cc(Nc2ncc(C(=O)OC(C)C)c(-c3cn(C)c4ccccc34)n2)c(OC)cc1N(C)CCN(C)C
Cmax (human, fasted; oral, 20 mg single dose, geometric mean): 3.2 ng/mL

CNc1nc(Nc2ccc(-n3cnc(C)n3)c(OC)c2)nc2c1CC[C@H]2c1ccc(F)cc1
Cmax (healthy humans, both sexes, plasma; oral, 900 mg single dose): 748 ng/mL

CC(C)(Sc1ccncc1-c1ccc(C#N)c2ccccc12)C(=O)O
Cmax (human, plasma; oral, 20 mg, with: febuxostat 40 mg): 26.1 ng/mL

Nc1cccc2c1C(=O)N(C1CCC(=O)NC1=O)C2=O (stereo not shown)
Cmax (healthy male humans, plasma; oral, dose not given, geometric mean, with: fluvoxamine): 60.8 ng/mL

O=C(c1ccc(F)c(F)c1Nc1ccc(I)cc1F)N1CC(O)([C@@H]2CCCCN2)C1
Cmax (human, plasma; oral, 100 mg, steady state): 649 ng/mL

Cc1ccc(C(=O)NC2CC2)cc1-n1ncc(C(=O)c2cccc(C#N)c2)c1N
Cmax (human, plasma; oral, 14 mg, single dose alone, geometric mean): 116 ng/mL

NS(=O)(=O)OC[C@@H]1C[C@@H](n2ccc3c(N[C@H]4CCc5ccccc54)ncnc32)C[C@@H]1O
Cmax (human; iv, 8 mg/m^2 single dose, day 8, geometric mean, with: fluconazole): 51 ng/mL

CNC(=O)c1ccc(-c2cnc3ncc(Cc4ccc5ncccc5c4)n3n2)cc1F
Cmax (healthy human subjects, plasma; oral, 400 mg, arithmetic mean, alone): 3330 ng/mL

C#Cc1cccc(Nc2ncnc3cc(OCCOC)c(OCCO)cc23)c1
Cmax (human, plasma; erlotinib, day 14, normalised to erlotinib 150 mg): 317 ± 166 ng/mL

O=C(CCCCCCC(=O)Nc1ccccc1)NO
Cmax (median; human patients, serum; oral, 100 mg three times daily, 14-day and 3-day cohorts): 331 to 445 nM

O=C(c1ccc(OCCN2CCCCC2)cc1)c1c(-c2ccc(O)cc2)sc2cc(O)ccc12
Cmax (healthy humans, plasma; oral, 60 mg, with: water): 0.36 nM

CC#CC(=O)N1CC[C@@H](n2c(=O)n(-c3ccc(Oc4ccccc4)cc3)c3c(N)ncnc32)C1
Cmax (human, fasting, plasma; oral, 160 mg once daily, cycle 1 day 28): 484 ng/mL

O=C(O)CNC(=O)c1c(O)c2ccccc2n(OCC2CC2)c1=O
Cmax (LC-MS/MS; human, blood; oral, 200 mg multiple doses): 2310 ± 621 ng/mL

CC[C@H](C)[C@@H]1NC(=O)[C@H](CCCNC(=N)N)NC(=O)[C@H](CC(=O)O)NC(=O)[C@H](CC(C)C)NC(=O)[C@H](CCCCN)NC(=O)[C@H](CC(C)C)NC(=O)CNC(=O)[C@H](Cc2ccccc2)NC(=O)[C@@H](NC(=O)CNC(=O)[C@H](CCCCN)NC(=O)[C@H](CO)NC(=O)[C@H](CC(C)C)NC(=O)CNC(=O)[C@H](CCCCN)NC(=O)[C@H](CCCCN)NC(=O)[C@H](CC(N)=O)NC(=O)[C@H](C)NC(=O)CNC(=O)[C@H](CCCCN)NC(=O)[C@H](Cc2ccc(O)cc2)NC(=O)[C@H](CCCCN)NC(=O)[C@H](CCCNC(=N)N)NC(=O)[C@H](C)NC(=O)[C@H](CC(N)=O)NC(=O)[C@@H]2CCCN2C(=O)[C@H](Cc2c[nH]cn2)NC(=O)[C@H](CCC(=O)O)NC(=O)[C@H](CCC(N)=O)NC(=O)CNC(=O)[C@@H]2CCCN2)CSSC[C@@H](C(=O)O)NC(=O)CNC(=O)[C@H](CC(C)C)NC(=O)CNC(=O)[C@H](CO)NC(=O)[C@H](CCSC)NC(=O)[C@H](CO)NC(=O)CNC1=O
Cmax (human, plasma; subcutaneous, 15 µg/kg once daily, week 52): 5.8 ng/mL

CC(C)(Sc1ccncc1-c1ccc(C#N)c2ccccc12)C(=O)O
Cmax (human, male, Japanese, plasma; oral, 10 mg, day 6, fed, single dose): 21.9 ng/mL

CCCCC1(CCCC)CN(c2ccccc2)c2cc(SC)c(OCC(=O)N[C@@H](C(=O)NCC(=O)O)c3ccccc3)cc2S(=O)(=O)C1
Cmax (LC-MS/MS; human, plasma; oral, 15 mg, single dose, fasted): 1.81 ng/mL

COc1ccc2nc([S@@+]([O-])Cc3ncc(C)c(OC)c3C)[nH]c2c1
Cmax (human, CYP2C19 poor metabolizers, plasma; oral, 40 mg/day, day 5): 3610 ± 2450 ng/mL

O=C(O)CC[C@H]1CC[C@@](c2cc(F)ccc2F)(S(=O)(=O)c2ccc(Cl)cc2)CC1
Cmax (human children, plasma; oral, 1000 mg/m^2 weekly): 75200 ng/mL

COc1ccnc(C[S+]([O-])c2nc3ccc(OC(F)F)cc3[nH]2)c1OC (stereo not shown)
Cmax (human, CYP2C19 ultrarapid metabolizers, plasma; oral, 40 mg/day, day 1): 4310 ng/mL

CCN(c1cc(-c2ccc(CN3CCOCC3)cc2)cc(C(=O)NCc2c(C)cc(C)[nH]c2=O)c1C)C1CCOCC1
Cmax (human, plasma; oral, 800 mg twice daily, multiple doses, cycle 1 day 15): 1290 ng/mL

O=C(c1cccnc1-c1ccncc1)N1CCC(O)(Cc2ccccc2)CC1
Cmax (healthy human, plasma; oral, 300 mg once daily, day 1, arithmetic mean): 2020 ng/mL

COc1c(OCCCN2CCOCC2)ccc2c1N=C(NC(=O)c1cnc(N)nc1)N1CCN=C21
Cmax (human cancer patients, plasma; intravenous, 0.6 mg/kg weekly, cycle 1 day 1, compound alone, geometric mean): 403 ng/mL

COc1cc(N2CCC(N3CCN(C)CC3)CC2)ccc1Nc1ncc(Cl)c(Nc2ccccc2P(C)(C)=O)n1
Cmax (healthy human subjects, fasted, plasma; oral, 180 mg): 743 ng/mL

CON(C)C(=O)N1N=C(c2cc(F)ccc2F)S[C@@]1(CCCN)c1ccccc1
Cmax (human; intravenous, 0.8 mg/m^2, cycle 1 day 3, geometric mean): 6.68 ng/mL

CCc1cc(/C(C)=N/OCc2ccc(C3CCCCC3)c(C(F)(F)F)c2)ccc1CN1CC(C(=O)O)C1
Cmax (healthy human, plasma; oral, 4 mg, geometric mean, with: fluconazole steady state): 34 ng/mL

C=C(C)[C@@H]1CC[C@]2(NCCN3CCS(=O)(=O)CC3)CC[C@]3(C)[C@H](CC[C@@H]4[C@@]5(C)CC=C(C6=CC[C@@](CF)(C(=O)O)CC6)C(C)(C)[C@@H]5CC[C@]43C)[C@@H]12
Cmax (healthy human volunteers, plasma; oral, 200 mg, tablet, fasted state, geometric mean): 354 ng/mL

Nc1ccc(-c2nc([C@H]3CCc4cc(-c5cc(Cl)ccc5-n5cnnn5)cc(=O)n43)c(F)[nH]2)c(F)n1
Cmax (human, plasma; oral, 250 mg once daily, fed, day 1): 1770 ng/mL

CNC(=O)c1c(C)oc2cc(Oc3ncnc4cc(OC)c(OC)cc34)ccc12
Cmax (human, plasma; oral, 5 mg, fasted, with: rabeprazole 40 mg): 121 ng/mL

CC[C@H](C)[C@H](NC(=O)[C@H](CCC(=O)O)NC(=O)[C@H](CO)NC(=O)[C@@H](NC(=O)[C@@H](N)CO)C(C)C)C(=O)N[C@@H](CCC(N)=O)C(=O)N[C@@H](CC(C)C)C(=O)N[C@@H](CCSC)C(=O)N[C@@H](Cc1cnc[nH]1)C(=O)N[C@@H](CC(N)=O)C(=O)N[C@@H](CC(C)C)C(=O)NCC(=O)N[C@@H](CCCCN)C(=O)N[C@@H](Cc1cnc[nH]1)C(=O)N[C@@H](CC(C)C)C(=O)N[C@@H](CC(N)=O)C(=O)N[C@@H](CO)C(=O)N[C@@H](CCSC)C(=O)N[C@@H](CCC(=O)O)C(=O)N[C@@H](CCCN=C(N)N)C(=O)N[C@H](C(=O)N[C@@H](CCC(=O)O)C(=O)N[C@@H](Cc1c[nH]c2ccccc12)C(=O)N[C@@H](CC(C)C)C(=O)N[C@@H](CCCN=C(N)N)C(=O)N[C@@H](CCCCN)C(=O)N[C@@H](CCCCN)C(=O)N[C@@H](CC(C)C)C(=O)N[C@@H](CCC(N)=O)C(=O)N[C@@H](CC(=O)O)C(=O)N[C@H](C(=O)N[C@@H](Cc1cnc[nH]1)C(=O)N[C@@H](CC(N)=O)C(=O)N[C@@H](Cc1ccccc1)C(=O)O)C(C)C)C(C)C
Cmax (immunoradiometric; human, plasma; subcutaneous, 56.5 µg once weekly, day 1): 0.461 ± 0.0933 ng/mL

O=C([O-])CCCCCCCNC(=O)c1ccccc1O.[Na+]
Cmax (human, mild hepatic impairment, plasma; oral, once daily, day 10, after dose 10, geometric mean): 1260 ng/mL

CC(C)NC[C@@H](C(=O)N1CCN(c2ncnc3c2[C@H](C)C[C@H]3O)CC1)c1ccc(Cl)cc1
Cmax (human, matched normal hepatic function (Child-Pugh), plasma; oral, 100 mg single, reference geometric mean, vs Moderate): 48.4 ng/mL

O=C(Cc1cccc(OC(F)(F)F)c1)Nc1ccc(CCCCc2nnc(NC(=O)Cc3ccccn3)s2)nn1
Cmax (human patients, plasma; oral, 100 mg three times daily fasted, cycle 1 day 15 steady state): 395 ng/mL

C=C(C)[C@@H]1CC[C@]2(NCCN3CCS(=O)(=O)CC3)CC[C@]3(C)[C@H](CC[C@@H]4[C@@]5(C)CC=C(C6=CC[C@@](CF)(C(=O)O)CC6)C(C)(C)[C@@H]5CC[C@]43C)[C@@H]12
Cmax (human, plasma; oral, 200 mg once daily, day 14): 1400 ng/mL

Cc1cccc(C)c1N(CC(=O)Nc1ccc(-c2ncon2)cc1)C(=O)C1CCS(=O)(=O)CC1
Cmax (human male, plasma; oral, 1200 mg single dose, arithmetic mean, alone): 3950 ng/mL

CCCCCCCCCCCCCCC[C@H](O)[C@@H](N)CO
Cmax (human, phase I, plasma; intravenous, 930 mg/m^2, day 1, monotherapy): 25600 nM

COc1cc2ncnc(Nc3ccc(F)c(Cl)c3)c2cc1OCCCN1CCOCC1
Cmax (human, plasma; oral, 250 mg, with: vorinostat 200 mg): 344 ± 44 ng/mL

C=CC(=O)Nc1cc(Nc2ncc(C(=O)OC(C)C)c(-c3cn(C)c4ccccc34)n2)c(OC)cc1N(C)CCN(C)C
Cmax (human, plasma; oral, 160 mg, arithmetic mean, alone): 70 ng/mL
